Experimental data from different studies.
Lines come from different studies, so protocols differ. Numbers after ± are the reported error.
Cell line: MCF7

With `C[C@]12CC[C@@H]3c4ccc(OCC(=O)N[C@@H](CCCCNC(=O)CN5CCN(CC(=O)[O-])CCN(CC(=O)[O-])CCN(CC(=O)[O-])CC5)C(=O)O)cc4CC[C@H]3[C@@H]1CCC2=O.[Ga+3]` [gallium-68 labelled] the Kd was 17.7 ± 3.74 nM (saturation binding; 60 min, room temperature).
Under “cells in %S phase”, `CN1CCN(c2ccc(C(=O)/C=C/Nc3ccc(S(N)(=O)=O)cc3)cc2)CC1` is recorded as 25% (PI flow cytometry; IC50 concentration, 24 h).
`CN1CCC2(CC1)C/C(=N\NC(=O)Nc1ccccc1)c1ccccc1O2` — result for “cell cycle distribution”: 46.4% (PI staining, flow cytometry; concentration not given, %G0-G1).
`COc1ccc(NC(=O)CCc2nc3cc(Cl)ccc3[nH]c2=O)cc1`: “active caspase-3 level” 423 ± 11.2 pg/mL (concentration not given).
`COc1ccc(-c2nnc(-c3cc(-c4ccccc4)n(-c4ccc(S(N)(=O)=O)cc4)n3)o2)cc1` has a mRNA level of 0.28 fold (real-time PCR, item: bcl-2; concentration not given; relative to: untreated cells).
With `NS(=O)(=O)c1ccc(/N=N/c2ccc(O)c(/C=N/CCc3c[nH]c4ccccc34)c2)cc1` the selectivity index was 1.15 (MTT; 48 h; relative to: MCF10A IC50 over MCF7 IC50).
The TGI of `CCCCCCCCCCCCCCCC(=O)N[C@@H](Cc1c[nH]cn1)C(=O)N[C@@H](CCCNC(=N)N)C(=O)N[C@@H](CCCCN)C(=O)N[C@@H](CCCNC(=N)N)C(=O)N[C@@H](CC(N)=O)C(=O)N[C@@H](CC(N)=O)C(=O)N[C@@H](CO)C(=O)N[C@@H](CCCNC(=N)N)C(=O)N[C@@H](CC(C)C)C(=O)NCC(=O)N[C@@H](CC(N)=O)C(=O)NCC(=O)N[C@H](C(=O)N[C@@H](CC(C)C)C(=O)N[C@@H](Cc1ccc(O)cc1)C(=O)N[C@@H](C)C(=O)N[C@@H](CO)C(=O)N[C@H](C(=O)N[C@@H](CC(N)=O)C(N)=O)C(C)C)C(C)C` is reported as 1550 ± 100 nM (48 h, 1% FBS).
For `O=C1c2c(O)cc(O)cc2-c2c(-c3ccc(O)cc3)oc3cc(O)cc1c23`, “unique upregulated proteins” read about 51% (label-free MS proteomics; relative to: tanespimycin).
`C[n+]1c(/C=C/c2ccc(N(c3ccccc3)c3ccccc3)cc2)cc(/C=C2\Sc3ccccc3N2CCCN2CCCC2)c2ccccc21` — result for “γ-H2AX and 53BP1 levels”: “increased” (Western blot; concentration not given, 36 h).
`CC(Cc1ccc(Cl)cc1)=C(c1ccc(O)cc1)c1ccc(Cl)cc1` — result for growth inhibition: “no inhibition” (10 µM).
`CC(=NNC(=S)NN=C(C(=NO)c1ccccc1)c1ccccc1)c1ccccc1`: “relative protein level” 0.81 ± 0.06 (Western blot, item: NF-κB p65; IC50 concentration, 24 h; relative to: untreated).
With `COc1cc2c(=O)c(-c3ccc4c(c3)OCO4)coc2c2c1OC(C)(C)C=C2` the apoptotic cells was 31.3% (annexin V/PI flow cytometry; 5 µM, 48 h).
`CC(C)c1cnn2c(NCc3ccccc3)cc(N[C@@H](CO)[C@H](O)CO)nc12` — result for “RNA polymerase II Ser5 phosphorylation”: “inhibited” (immunofluorescence, item: phospho-Ser5 RNA polymerase II; 1 µM, 24 h).
For `CCC(=C(c1ccc(Cl)cc1)c1ccc(OCCN2CCOCC2)cc1)c1ccc(OC)cc1`, the inhibition was 2.3% (cell growth or viability; 10 µM).
With `NS(=O)(=O)c1ccc(/N=N/c2ccc(O)c(/C=N/c3nccs3)c2)cc1` the selectivity index was 3.76 (MTT; 48 h; relative to: MCF10A IC50 over MCF7 IC50).
For `CC(=O)N[C@H](CCCNC(=N)N)C(=O)N[C@H](CCCCN)C(=O)N[C@H](Cc1ccc(O)cc1)C(=O)N[C@H](CS)C(N)=O`, “late apoptotic cells” read 12.5% (Annexin V/PI flow cytometry; 50 nM, 24 h).
`FC(F)(F)c1cnc2[nH]cc(Cc3cccc(Cl)c3)c2c1` gave an inhibition of 29% (cell growth or viability; 10 µM, 72 h).
With `N=C(N)NCCC[C@H](NC(=O)[C@H](Cc1c[nH]c2ccccc12)NC(=O)[C@H](CCC(N)=O)NC(=O)[C@@H](N)Cc1c[nH]c2ccccc12)C(=O)N[C@@H](Cc1c[nH]c2ccccc12)C(=O)N[C@@H](CCC(N)=O)C(=O)N[C@@H](Cc1c[nH]c2ccccc12)C(N)=O` the selectivity ratio was 0.5 (relative to: fibroblast IC50 over MCF7 IC50).
